Earlier results as cited in several papers.
“And” joins repeats or separate records; there may be more than shown. ± gives the spread as reported.
UniProt P56658, sequence (whole entry, looked up): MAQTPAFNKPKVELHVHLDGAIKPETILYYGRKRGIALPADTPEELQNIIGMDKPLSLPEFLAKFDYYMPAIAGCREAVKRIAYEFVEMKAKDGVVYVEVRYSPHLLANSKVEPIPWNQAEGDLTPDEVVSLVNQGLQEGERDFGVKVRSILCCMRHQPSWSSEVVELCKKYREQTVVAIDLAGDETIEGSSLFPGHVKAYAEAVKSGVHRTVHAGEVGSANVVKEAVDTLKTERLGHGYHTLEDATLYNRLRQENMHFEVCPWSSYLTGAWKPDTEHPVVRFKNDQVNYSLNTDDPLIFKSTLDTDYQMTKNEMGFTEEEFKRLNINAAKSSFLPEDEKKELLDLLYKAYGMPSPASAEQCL

Structure (SMILES)	target or system	assay	system	setting	how to read	measurement	result
O=C(O)CN1CCOCCN(CC(=O)O)Cc2cccc(n2)C1	protonation constant	–	–	0.15 M NaCl	–	log KH2	7.66
c1ccc2c(c1)CCNC2c1c[nH]c2ncccc12 (stereo not shown)	COLO 320 ABCB1-resistant colon	cytotoxicity	–	–	–	IC50	53.5 µM
C/C(N)=N/C(=N\S(=O)(=O)c1ccc(C(F)(F)F)cc1)N1C[C@H](c2ccccc2)C(c2ccc(Cl)cc2)=N1	–	–	Sprague-Dawley rat	3 mg/kg	–	F	81%
O=C(O)CN1CCNCCN(CC(=O)O)Cc2cccc(n2)C1	protonation constant	–	–	0.15 M NaCl	–	log KH3	3.47
CCOC(=O)C(c1cc(Cl)c2cccnc2c1O)c1c[nH]c2ncccc12 (stereo not shown)	MRC-5 fibroblasts	cell viability	–	–	–	IC50	46.9 µM and 45.6 µM
COc1ccc(Nc2nc(Nc3ccc(OCC[18F])cc3)ncc2Br)cc1	–	–	S180 tumour-bearing mice	intravenous, 120 min	baseline: tumour over blood	tumour to tissue ratio	3.84
CCOC(=O)C(c1ccc2ccccc2c1O)c1c[nH]c2ccccc12 (stereo not shown)	COLO 320 ABCB1-resistant colon	cytotoxicity	–	–	–	IC50	54.9 µM and 53.8 µM and 52.2 µM
FC(F)(F)c1cc2nc(c1)CNCCNCCNC2	–	–	aqueous solution	Cu(II) 1 µM, ligand 10 µM	–	pCu	15.6
O=C(O)CCCCC1(N(CC(=O)O)CC(=O)O)CN(CC(=O)O)CCN(CC(=O)O)C1	–	pH-potentiometry, item: logK2H	0.15 M NaCl	25 °C	–	protonation constant (log)	6.9
CCOC(=O)C(c1cc(Cl)c2cccnc2c1O)N1CCOCC1 (stereo not shown)	COLO 205	cytotoxicity	–	–	–	IC50	2.02 µM and 2.06 µM and 2.07 µM
CC1(N(CC(=O)O)CC(=O)O)CN(CC(=O)O)CCN(CC(=O)O)C1	–	pH-potentiometry, item: logK5H	0.15 M NaCl	25 °C	–	protonation constant (log)	1.51
Oc1c(C(c2ccccc2)c2c[nH]c3ccccc23)cc(Cl)c2cccnc12 (stereo not shown)	COLO 205	cell viability	–	–	–	IC50	2.53 µM
O=C(O)CN(CC(=O)O)[C@H]1CCCC[C@@H]1N(CC(=O)O)Cc1ccccn1	protonation constant	–	–	0.15 M NaCl	–	log KH3	3.13
Cc1ccc2c(c1)nc(CCN1C(=O)c3cccc4cccc(c34)C1=O)n2-c1ccncc1	–	–	Sprague-Dawley rat	oral, 10 mg/kg	–	AUC(0-inf)	70 ng·h/mL
NCCN1CCN(CC(=O)O)Cc2cccc(n2)CN(CC(=O)O)CC1	protonation constant	–	–	0.15 M NaCl	–	log KH2	8.93
Nc1ncnc2c([C@@H]3O[C@H](CO)[C@@H](O)[C@H]3O)snc12	Adenosine deaminase (ADA, Bos taurus, UniProt P56658)	substrate, fluorescence	–	–	–	deamination half-life	33.3 ± 0.7 s
